Measured values of several laboratories.
Values joined by “and” are separate records of one study, mostly repeats; a detail may differ.
Organism: Staphylococcus epidermidis

CC[C@H](C)[C@@H]1NC(=O)CNC(=O)[C@H](CCCCN)NC(=O)[C@H](C)NC(=O)[C@H](CCC(=O)O)NC(=O)[C@H](Cc2ccccc2)NC(=O)[C@H](CO)NC(=O)[C@H](CC(C)C)NC(=O)[C@H](C(C)C)NC(=O)[C@H](CC(=O)O)NC(=O)[C@@H](NC(=O)[C@@H](NC(=O)[C@@H](N)C(C)C)[C@@H](C)O)CSSC[C@@H]2NC(=O)[C@H](CO)NC(=O)CNC(=O)CNC(=O)[C@H](CCCCN)NC(=O)[C@H](CCCCN)NC(=O)[C@H](CCCNC(=N)N)NC(=O)[C@H](CC(C)C)NC(=O)[C@H](C)NC(=O)[C@H]([C@@H](C)CC)NC(=O)[C@H](CSSC[C@@H](C(=O)N[C@@H](CCCNC(=N)N)C(=O)N[C@@H](CC(N)=O)C(=O)O)NC(=O)[C@H](C(C)C)NC(=O)[C@H](C)NC(=O)[C@H](C(C)C)NC(=O)CNC(=O)[C@H](CC(N)=O)NC(=O)[C@H](CCC(N)=O)NC2=O)NC(=O)[C@H](Cc2c[nH]cn2)NC(=O)[C@H](CC(C)C)NC(=O)[C@H](C)NC(=O)[C@H](C)NC(=O)[C@H](C)NC(=O)[C@H](CO)NC(=O)[C@H](Cc2c[nH]cn2)NC(=O)[C@H](CC(N)=O)NC(=O)[C@H](C(C)C)NC(=O)[C@H](C)NC1=O gave an MIC of over 100 µM (broth microdilution; KCTC 1917; 16 h, 37 °C).
The MIC of CCCCCCCCCCCCCc1cc(O)cc(O)c1 is reported as over 64 µg/mL (microbial growth, broth dilution; ATCC35984; drug-resistant strain).
CC[C@H](C)[C@H](NC(=O)[C@@H](N)C(C)C)C(=O)N[C@@H](Cc1c[nH]cn1)C(=O)N[C@@H](CCCNC(=N)N)C(=O)N[C@@H](C)C(=O)NCC(=O)N[C@@H](CC(C)C)C(=O)N[C@@H](CCC(N)=O)C(=O)N[C@@H](Cc1ccccc1)C(=O)N1CCC[C@H]1C(=O)N[C@H](C(=O)NCC(=O)N[C@@H](CCCNC(=N)N)C(=O)N[C@H](C(=O)N[C@@H](Cc1c[nH]cn1)C(=O)N[C@@H](CCCNC(=N)N)C(=O)N[C@@H](CC(C)C)C(=O)N[C@@H](CC(C)C)C(=O)N[C@@H](CCCNC(=N)N)C(=O)N[C@@H](CCCCN)C(N)=O)C(C)C)C(C)C has an MIC of 8 µM (ATCC 12228; 18 to 20 h).
The MIC of CC[C@@H](C)[C@@H](NC(=O)[C@@H](C)NC(=O)[C@@H](CCCCN)NC(=O)[C@@H](CC(C)C)NC(=O)[C@@H](C)NC(=O)[C@H](NC(=O)[C@@H](Cc1c[nH]cn1)NC(=O)[C@@H](CC(C)C)NC(=O)[C@H](NC(=O)[C@H](NC(=O)[C@@H](CCCCN)NC(=O)[C@@H](CCCCN)NC(=O)[C@@H](C)NC(=O)[C@@H](CO)NC(=O)[C@@H](CCCCN)NC(=O)[C@@H](Cc1ccccc1)NC(=O)[C@H](NC(=O)[C@@H](CCCCN)NC(=O)[C@@H](CC(C)C)NC(=O)[C@@H](Cc1ccccc1)NC(=O)[C@@H](CO)NC(=O)[C@@H](CCCCN)NC(=O)[C@@H](Cc1c[nH]c2ccccc12)NC(=O)[C@@H](CCCCN)NC(C)=O)[C@H](C)O)[C@H](C)O)C(C)C)[C@H](C)O)C(=O)N[C@H](CO)C(=O)N[C@H](CO)C(N)=O is reported as 4 µg/mL (clinical isolate; 24 h, 37 °C).
The MIC of CCCCCCCCCCCCCCCc1cc(O)cc(O)c1 is reported as over 64 µg/mL (microbial growth, broth dilution; ATCC35984; drug-resistant strain).
For CCN1CCNC1=[S+][Ag-3]([O][N+](=O)[O-])([P+](c1ccccc1)(c1ccccc1)c1ccccc1)[P+](c1ccccc1)(c1ccccc1)c1ccccc1, the MIC was 5 to 10 µg/mL and 5 µg/mL (agar dilution; MTCC 435, Mueller Hinton agar; 24 h, 37 °C).
The MIC of CC(C)C[C@H](NC(=O)[C@H](CCCCN)NC(=O)[C@H](C)NC(=O)[C@H](CC(C)C)NC(=O)[C@H](CCCCN)NC(=O)[C@H](CCCCN)NC(=O)[C@H](C)NC(=O)[C@H](CC(C)C)NC(=O)[C@H](CCCCN)NC(=O)[C@H](C)NC(=O)[C@H](CC(C)C)NC(=O)[C@H](CCCCN)NC(=O)[C@H](Cc1c[nH]cn1)NC(=O)[C@H](C)NC(=O)[C@@H](N)CC(=O)O)C(=O)N[C@@H](C)C(=O)N[C@@H](CCCCN)C(N)=O is reported as 4 µM (ATCC 12228; 18 to 20 h).
For CCCN1CCNC1=[S+][Ag-3]([O][N+](=O)[O-])([P+](c1ccccc1)(c1ccccc1)c1ccccc1)[P+](c1ccccc1)(c1ccccc1)c1ccccc1, the MIC was 5 to 10 µg/mL and 10 µg/mL (agar dilution; MTCC 435, Mueller Hinton agar; 24 h, 37 °C).
c1ccc(CCNC2CCCc3c2[nH]c2ccc(C4CCCCC4)cc32)cc1 (stereo not shown) has an MIC of 2 µg/mL (microbial growth, broth dilution; MRSE).
The MIC of CC[C@H](C)[C@H](NC(=O)[C@@H](Cc1ccccc1)NC)C(=O)N[C@@H](CO)C(=O)N[C@H](CCCNC(=N)N)C(=O)N[C@@H](C(=O)N[C@H](C(=O)OC[C@H](N)C(=O)N[C@H]1C(=O)N[C@@H](C)C(=O)N[C@@H](CC(C)C)C(=O)N[C@@H]([C@@H](C)CC)C(=O)O[C@H]1C)[C@@H](C)CC)[C@@H](C)CC is reported as 0.0156 to 0.0312 µg/mL (broth microdilution; ATCC 14990, Mueller-Hinton broth; 16 h, 37 °C).
The MIC of CC[C@H](C)[C@H](NC(=O)[C@H](CCCNC(=N)N)NC(=O)[C@H](CCCCN)NC(=O)[C@H](CC(C)C)NC(=O)[C@H](CC(C)C)NC(=O)CNC(=O)[C@H](Cc1c[nH]cn1)NC(=O)[C@@H](NC(=O)[C@@H](N)C(C)C)[C@@H](C)CC)C(=O)N[C@@H](CCCCN)C(=O)N[C@H](C(=O)N[C@@H](CC(C)C)C(=O)N[C@@H](CC(C)C)C(N)=O)[C@@H](C)O is reported as 2 µM (ATCC 12228; 18 to 20 h).
CC[C@H](C)[C@H](NC(=O)CNC(=O)[C@H](CCCCN)NC(=O)[C@H](C)NC(=O)[C@H](CCC(=O)O)NC(=O)[C@H](Cc1ccccc1)NC(=O)[C@H](CO)NC(=O)[C@H](CC(C)C)NC(=O)[C@@H](NC(=O)[C@H](CC(=O)O)NC(=O)[C@H](C)NC(=O)[C@@H](NC(=O)[C@@H](N)C(C)C)[C@@H](C)O)C(C)C)C(=O)N[C@@H](C)C(=O)N[C@H](C(=O)N[C@@H](CC(N)=O)C(=O)N[C@@H](Cc1c[nH]cn1)C(=O)N[C@@H](CO)C(=O)N[C@@H](C)C(=O)N[C@H]1CSSC[C@@H]2NC(=O)[C@H](C(C)C)NC(=O)CNC(=O)[C@H](CC(N)=O)NC(=O)[C@H](CCC(N)=O)NC(=O)[C@H](C)NC(=O)[C@H](CO)NC(=O)CNC(=O)CNC(=O)[C@H](CCCCN)NC(=O)[C@H](CCCCN)NC(=O)[C@H](CCCNC(=N)N)NC(=O)[C@H](CC(C)C)NC(=O)[C@H](C)NC(=O)[C@H]([C@@H](C)CC)NC(=O)[C@H](CSSC[C@@H](C(=O)N[C@@H](CCCNC(=N)N)C(=O)N[C@@H](CC(N)=O)C(=O)O)NC(=O)[C@H](C(C)C)NC2=O)NC(=O)[C@H](Cc2c[nH]cn2)NC(=O)[C@H](CC(C)C)NC(=O)[C@H](C)NC1=O)C(C)C gave an MIC of over 100 µM (broth microdilution; KCTC 1917; 16 h, 37 °C).
CC[C@H](C)[C@H](NC(=O)[C@H](NC(=O)[C@@H](CCC(N)=O)NC(=O)[C@@H](N)COC(=O)[C@@H](NC(=O)[C@@H](Cc1ccccc1)NC)[C@@H](C)CC)[C@@H](C)CC)C(=O)N[C@@H](CO)C(=O)N[C@H]1C(=O)N[C@@H](C)C(=O)N[C@@H](C2CCCCC2)C(=O)N[C@@H]([C@@H](C)CC)C(=O)O[C@H]1C has an MIC of 0.25 µg/mL (broth microdilution; ATCC 14990, Mueller-Hinton broth; 16 h, 37 °C).
CC(C)C[C@H](NC(=O)CNC(=O)[C@H](C)NC(=O)[C@H](CCCNC(=N)N)NC(=O)[C@H](Cc1c[nH]cn1)NC(=O)[C@H](C)NC(=O)[C@@H](N)CC(=O)O)C(=O)N[C@@H](CCC(N)=O)C(=O)N[C@@H](Cc1ccccc1)C(=O)N1CCC[C@H]1C(=O)N[C@H](C(=O)NCC(=O)N[C@@H](CCCNC(=N)N)C(=O)N[C@H](C(=O)N[C@@H](Cc1c[nH]cn1)C(=O)N[C@@H](CCCNC(=N)N)C(=O)N[C@@H](CC(C)C)C(=O)N[C@@H](CC(C)C)C(=O)N[C@@H](CCCNC(=N)N)C(=O)N[C@@H](CCCCN)C(N)=O)C(C)C)C(C)C gave an MIC of 4 µM (ATCC 12228; 18 to 20 h).
CC[C@H](C)[C@H](NC(=O)[C@@H](Cc1ccccc1)NC)C(=O)OC[C@H](N)C(=O)N[C@H](CCC(N)=O)C(=O)N[C@@H](C(=O)N[C@H](C(=O)OC[C@H](N)C(=O)N[C@H]1C(=O)N[C@@H](C)C(=O)N[C@@H](C2CCCCC2)C(=O)N[C@@H]([C@@H](C)CC)C(=O)O[C@H]1C)[C@@H](C)CC)[C@@H](C)CC has an MIC of 0.5 µg/mL (broth microdilution; ATCC 14990, Mueller-Hinton broth; 16 h, 37 °C).
For CC(C)CCCCCCCCCCCCc1cc(O)cc(O)c1, the MIC was over 64 µg/mL (microbial growth, broth dilution; ATCC35984; drug-resistant strain).

Excerpt of the above:
CC[C@H](C)[C@@H]1NC(=O)CNC(=O)[C@H](CCCCN)NC(=O)[C@H](C)NC(=O)[C@H](CCC(=O)O)NC(=O)[C@H](Cc2ccccc2)NC(=O)[C@H](CO)NC(=O)[C@H](CC(C)C)NC(=O)[C@H](C(C)C)NC(=O)[C@H](CC(=O)O)NC(=O)[C@@H](NC(=O)[C@@H](NC(=O)[C@@H](N)C(C)C)[C@@H](C)O)CSSC[C@@H]2NC(=O)[C@H](CO)NC(=O)CNC(=O)CNC(=O)[C@H](CCCCN)NC(=O)[C@H](CCCCN)NC(=O)[C@H](CCCNC(=N)N)NC(=O)[C@H](CC(C)C)NC(=O)[C@H](C)NC(=O)[C@H]([C@@H](C)CC)NC(=O)[C@H](CSSC[C@@H](C(=O)N[C@@H](CCCNC(=N)N)C(=O)N[C@@H](CC(N)=O)C(=O)O)NC(=O)[C@H](C(C)C)NC(=O)[C@H](C)NC(=O)[C@H](C(C)C)NC(=O)CNC(=O)[C@H](CC(N)=O)NC(=O)[C@H](CCC(N)=O)NC2=O)NC(=O)[C@H](Cc2c[nH]cn2)NC(=O)[C@H](CC(C)C)NC(=O)[C@H](C)NC(=O)[C@H](C)NC(=O)[C@H](C)NC(=O)[C@H](CO)NC(=O)[C@H](Cc2c[nH]cn2)NC(=O)[C@H](CC(N)=O)NC(=O)[C@H](C(C)C)NC(=O)[C@H](C)NC1=O gave an MIC of over 100 µM (broth microdilution; KCTC 1917; 16 h, 37 °C).
